# Published values of several laboratories.
# Protocols differ between the studies behind these lines. Non-standard residues stand in square brackets, D forms with d. No end group written: not given here.
Molecule,assay,test system,conditions,how to read,endpoint,value
CC(C)C[C@@H]1NC(=O)[C@H](CCCN)NC(=O)[C@H](C(C)C)NC(=O)[C@@H]2CCCN2C(=O)[C@@H](Cc2ccccc2)NC(=O)[C@H](CC(C)C)NC(=O)[C@H](CCCN)NC(=O)[C@H](C(C)C)NC(=O)[C@@H]2CCCN2C(=O)[C@@H](Cc2ccccc2)NC1=O,RP-HPLC C8,,"70 °C, water/acetonitrile TFA gradient",,retention time,33.5 min
C[C@H](NC(=O)[C@@H](N)CCCNC(=N)N)C(=O)N[C@@H](CCC(N)=O)C(=O)N[C@@H](Cc1c[nH]c2ccccc12)C(=O)N[C@@H](CCCNC(=N)N)C(=O)N[C@@H](Cc1c[nH]c2ccccc12)C(=O)N[C@@H](CCC(N)=O)C(=O)N[C@@H](Cc1c[nH]c2ccccc12)C(=O)N[C@@H](CCCNC(=N)N)C(N)=O,RP-HPLC C18,,hydrophobicity measure,,retention time,5.8 min
CC(=O)N[C@@H](Cc1ccc(-c2ccccc2)cc1)C(=O)N[C@@H](CCCCN)C(=O)N[C@@H](Cc1ccccc1)C(=O)N[C@@H](CCC(=O)O)C(=O)N[C@@H](Cc1ccccc1)C(=O)N[C@@H](CCCCN)C(=O)N[C@@H](Cc1ccccc1)C(=O)N[C@@H](CCC(=O)O)C(N)=O,reverse-phase HPLC C18,,,,retention time,13.2 min
CC[C@H](C)[C@H](NC(=O)[C@H](Cc1ccc(O)cc1)NC(=O)[C@@H](N)CC(C)C)C(=O)N[C@@H](CCC(N)=O)C(=O)N[C@@H](Cc1c[nH]c2ccccc12)C(=O)N[C@@H](CC(C)C)C(=O)O,analytical RP-HPLC,C18 column,,,retention time,18 to 19 min
Trp-[Phe(4-F)] (Trp-4-fluoro-Phe; Phe(4-F) = N[C@@H](Cc1ccc(F)cc1)C(=O)O),RP-HPLC C18,,25 °C,baseline: non-fluorinated analogue,retention time shift per fluorine,6.13 min
N=C(N)NCCC[C@H](NC(=O)[C@H](Cc1c[nH]c2ccccc12)NC(=O)[C@H](CCC(N)=O)NC(=O)[C@H](Cc1c[nH]c2ccccc12)NC(=O)[C@H](CCCNC(=N)N)NC(=O)[C@H](Cc1c[nH]c2ccccc12)NC(=O)[C@H](CCC(N)=O)NC(=O)[C@H](Cc1c[nH]c2ccccc12)NC(=O)[C@@H](N)CCCN)C(N)=O,"RP-HPLC, C18 column",,water/acetonitrile gradient with TFA,,retention time,6.4 min
CC(C)(C)O[C@H]([C@H](NC(=O)OCC1c2ccccc2-c2ccccc21)C(=O)O)C(F)(F)F,RP-HPLC C18,,25 °C,baseline: non-fluorinated analogue,retention time shift per fluorine,7.37 min
RWQWRWQWR,"RP-HPLC, C18 column",peptide,,higher is more hydrophobic,retention time,5.8 min
CC(=O)N[C@H](CCCCN)C(=O)N[C@H](CC(C)C)C(=O)N[C@@H](CN)C(=O)N[C@H](CO)C(=O)N[C@H](CC(C)C)C(=O)N[C@H](CC(C)C)C(=O)N[C@@H](CN)C(=O)N[C@@H](C(=O)N[C@H](CC(C)C)C(=O)N[C@H](CO)C(=O)N[C@@H](CN)C(=O)N[C@H](C)C(=O)N[C@H](CCCCN)C(=O)N[C@H](C)C(=O)N[C@H](C)C(=O)N[C@H](CCCCN)C(=O)N[C@H](CC(C)C)C(=O)N[C@@H](CN)C(=O)N[C@@H](C(=O)N[C@H](CC(C)C)C(=O)N[C@H](CC(C)C)C(=O)N[C@@H](CN)C(=O)N[C@H](C)C(=O)N[C@H](CC(C)C)C(=O)N[C@H](CO)C(=O)N[C@@H](CN)C(N)=O)[C@H](C)O)[C@H](C)O,RP-HPLC C8,,"pH 2, 25 °C, hydrophobicity measure",,retention time,128 min
C[C@H](OC(C)(C)C)[C@H](NC(=O)OCC1c2ccccc2-c2ccccc21)C(=O)O,RP-HPLC C18,,25 °C,baseline: non-fluorinated analogue,retention time shift per fluorine,7.37 min
N=C(N)NCCC[C@H](NC(=O)[C@H](Cc1c[nH]c2ccccc12)NC(=O)[C@H](CCC(N)=O)NC(=O)[C@H](Cc1c[nH]c2ccccc12)NC(=O)[C@H](CCCNC(=N)N)NC(=O)[C@@H](N)CCCNC(=N)N)C(N)=O,"RP-HPLC, C18 column",,,higher is more hydrophobic,retention time,4 min
C[C@H](NC(=O)[C@H](Cc1c[nH]c2ccccc12)NC(=O)[C@H](CCCNC(=N)N)NC(=O)[C@H](Cc1c[nH]c2ccccc12)NC(=O)[C@H](CCC(N)=O)NC(=O)[C@H](Cc1c[nH]c2ccccc12)NC(=O)[C@@H](N)CCCNC(=N)N)C(=O)N[C@@H](Cc1c[nH]c2ccccc12)C(=O)N[C@@H](CCCNC(=N)N)C(N)=O,RP-HPLC C18,,hydrophobicity measure,,retention time,6.5 min
CCCCCCCC(=O)NCCCC[C@H](NC(=O)CCCCCCC)C(=O)N[C@@H](CCCCN)C(=O)N[C@@H](CCCCN)C(=O)N[C@@H](CCCCN)C(=O)N[C@@H](CCCCN)C(=O)N[C@@H](CCCCN)C(N)=O,RP-HPLC C18,,,,retention time,12.4 min
Trp-Phe,RP-HPLC C18,,25 °C,baseline: non-fluorinated analogue,retention time shift per fluorine,6.13 min
N=C(N)NCCC[C@H](NC(=O)[C@H](Cc1c[nH]c2ccccc12)NC(=O)[C@H](CCC(N)=O)NC(=O)[C@H](Cc1c[nH]c2ccccc12)NC(=O)[C@H](CCCNC(=N)N)NC(=O)[C@H](Cc1c[nH]c2ccccc12)NC(=O)[C@H](CCC(N)=O)NC(=O)[C@H](Cc1c[nH]c2ccccc12)NC(=O)[C@H](CCCNC(=N)N)NC(=O)CCCCCN)C(N)=O,"RP-HPLC, C18 column",,water/acetonitrile gradient with TFA,,retention time,6.3 min
CC(=O)N[C@@H](Cc1ccc(-c2ccccc2)cc1)C(=O)N[C@@H](CCCCN)C(=O)N[C@@H](Cc1ccc(-c2ccccc2)cc1)C(=O)N[C@@H](CCC(=O)O)C(=O)N[C@@H](Cc1ccc(-c2ccccc2)cc1)C(=O)N[C@@H](CCCCN)C(=O)N[C@@H](Cc1ccc(-c2ccccc2)cc1)C(=O)N[C@@H](CCC(=O)O)C(N)=O,reverse-phase HPLC C18,,,,retention time,15 min

# Excerpt of the above:
Molecule,assay,test system,conditions,how to read,endpoint,value
C[C@H](NC(=O)[C@H](Cc1c[nH]c2ccccc12)NC(=O)[C@H](CCCNC(=N)N)NC(=O)[C@H](Cc1c[nH]c2ccccc12)NC(=O)[C@H](CCC(N)=O)NC(=O)[C@H](Cc1c[nH]c2ccccc12)NC(=O)[C@@H](N)CCCNC(=N)N)C(=O)N[C@@H](Cc1c[nH]c2ccccc12)C(=O)N[C@@H](CCCNC(=N)N)C(N)=O,RP-HPLC C18,,hydrophobicity measure,,retention time,6.5 min
CCCCCCCC(=O)NCCCC[C@H](NC(=O)CCCCCCC)C(=O)N[C@@H](CCCCN)C(=O)N[C@@H](CCCCN)C(=O)N[C@@H](CCCCN)C(=O)N[C@@H](CCCCN)C(=O)N[C@@H](CCCCN)C(N)=O,RP-HPLC C18,,,,retention time,12.4 min
